Experimental data gathered from unrelated publications.
Each line is one published result; not all experiments were run side by side. Values joined by “and” are separate records of one study, mostly repeats; a detail may differ. Numbers after ± are the reported error.
RIPK1: Receptor-interacting serine/threonine-protein kinase 1 (RIPK1, Homo sapiens, UniProt Q13546)
Sequence of UniProt Q13546 (whole entry, looked up): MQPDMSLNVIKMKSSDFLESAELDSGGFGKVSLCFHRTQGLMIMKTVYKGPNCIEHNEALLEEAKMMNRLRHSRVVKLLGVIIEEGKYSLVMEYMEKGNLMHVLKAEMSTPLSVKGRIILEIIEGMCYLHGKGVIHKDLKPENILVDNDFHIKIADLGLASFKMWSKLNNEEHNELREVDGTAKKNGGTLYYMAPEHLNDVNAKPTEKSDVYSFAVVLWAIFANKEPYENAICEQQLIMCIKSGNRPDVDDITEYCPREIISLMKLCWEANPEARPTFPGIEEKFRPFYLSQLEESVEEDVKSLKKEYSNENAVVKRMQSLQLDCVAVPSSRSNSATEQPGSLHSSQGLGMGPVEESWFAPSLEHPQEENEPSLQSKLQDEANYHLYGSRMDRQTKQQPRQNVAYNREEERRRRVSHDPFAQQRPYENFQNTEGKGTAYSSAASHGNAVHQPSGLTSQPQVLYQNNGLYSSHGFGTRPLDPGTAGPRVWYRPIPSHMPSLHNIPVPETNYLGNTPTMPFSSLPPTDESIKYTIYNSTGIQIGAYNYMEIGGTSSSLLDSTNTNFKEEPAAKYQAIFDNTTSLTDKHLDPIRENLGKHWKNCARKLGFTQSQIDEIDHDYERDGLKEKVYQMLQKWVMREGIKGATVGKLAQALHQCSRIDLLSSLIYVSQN
SLC10A2: Ileal sodium/bile acid cotransporter (SLC10A2, Homo sapiens, UniProt Q12908)
Sequence of UniProt Q12908 (whole entry, looked up): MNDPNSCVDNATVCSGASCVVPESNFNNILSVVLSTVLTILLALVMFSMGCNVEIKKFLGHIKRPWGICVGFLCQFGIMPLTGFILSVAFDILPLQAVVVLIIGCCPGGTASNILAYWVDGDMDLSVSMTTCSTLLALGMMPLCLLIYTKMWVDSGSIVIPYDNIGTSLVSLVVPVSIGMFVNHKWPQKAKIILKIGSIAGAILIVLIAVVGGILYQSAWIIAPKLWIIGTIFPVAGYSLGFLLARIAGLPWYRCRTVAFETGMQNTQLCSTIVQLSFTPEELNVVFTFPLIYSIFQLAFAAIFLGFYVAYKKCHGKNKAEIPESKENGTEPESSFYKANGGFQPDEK
ESR1: Estrogen receptor (ESR1, Homo sapiens, UniProt P03372)
Sequence of UniProt P03372 (whole entry, looked up): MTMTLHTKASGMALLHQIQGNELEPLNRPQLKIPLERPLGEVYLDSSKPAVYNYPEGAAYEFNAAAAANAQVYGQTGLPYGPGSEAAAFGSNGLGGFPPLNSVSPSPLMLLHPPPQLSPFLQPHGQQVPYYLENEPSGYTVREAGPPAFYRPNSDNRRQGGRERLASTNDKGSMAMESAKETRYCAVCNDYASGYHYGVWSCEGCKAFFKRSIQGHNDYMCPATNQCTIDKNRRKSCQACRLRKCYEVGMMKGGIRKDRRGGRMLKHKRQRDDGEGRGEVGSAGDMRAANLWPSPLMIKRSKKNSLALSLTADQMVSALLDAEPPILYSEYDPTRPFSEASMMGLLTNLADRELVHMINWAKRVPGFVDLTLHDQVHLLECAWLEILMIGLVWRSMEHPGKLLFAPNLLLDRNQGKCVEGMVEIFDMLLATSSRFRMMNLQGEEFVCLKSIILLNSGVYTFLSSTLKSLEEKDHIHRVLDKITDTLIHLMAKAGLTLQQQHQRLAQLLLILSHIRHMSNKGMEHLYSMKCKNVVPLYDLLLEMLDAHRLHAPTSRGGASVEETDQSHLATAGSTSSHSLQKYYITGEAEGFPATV
ADORA1: Adenosine receptor A1 (ADORA1, Homo sapiens, UniProt P30542)
Sequence of UniProt P30542 (whole entry, looked up): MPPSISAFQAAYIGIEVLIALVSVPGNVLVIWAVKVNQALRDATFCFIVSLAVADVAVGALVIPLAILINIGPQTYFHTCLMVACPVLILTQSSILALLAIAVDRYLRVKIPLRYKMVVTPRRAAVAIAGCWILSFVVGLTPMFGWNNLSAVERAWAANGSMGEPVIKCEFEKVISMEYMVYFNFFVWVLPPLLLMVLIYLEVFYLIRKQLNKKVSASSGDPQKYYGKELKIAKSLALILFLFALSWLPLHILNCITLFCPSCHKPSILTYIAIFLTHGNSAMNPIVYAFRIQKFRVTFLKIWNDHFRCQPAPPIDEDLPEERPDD
ALB: Albumin (ALB, Homo sapiens, UniProt P02768)
T1: pre-miR-21 RNA (Homo sapiens); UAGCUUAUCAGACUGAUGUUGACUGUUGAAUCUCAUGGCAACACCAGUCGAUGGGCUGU
T2: DNA aptamer; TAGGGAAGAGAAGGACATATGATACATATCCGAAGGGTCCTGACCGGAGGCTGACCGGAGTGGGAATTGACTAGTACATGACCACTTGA
Sequence of UniProt P07814 (whole entry, looked up): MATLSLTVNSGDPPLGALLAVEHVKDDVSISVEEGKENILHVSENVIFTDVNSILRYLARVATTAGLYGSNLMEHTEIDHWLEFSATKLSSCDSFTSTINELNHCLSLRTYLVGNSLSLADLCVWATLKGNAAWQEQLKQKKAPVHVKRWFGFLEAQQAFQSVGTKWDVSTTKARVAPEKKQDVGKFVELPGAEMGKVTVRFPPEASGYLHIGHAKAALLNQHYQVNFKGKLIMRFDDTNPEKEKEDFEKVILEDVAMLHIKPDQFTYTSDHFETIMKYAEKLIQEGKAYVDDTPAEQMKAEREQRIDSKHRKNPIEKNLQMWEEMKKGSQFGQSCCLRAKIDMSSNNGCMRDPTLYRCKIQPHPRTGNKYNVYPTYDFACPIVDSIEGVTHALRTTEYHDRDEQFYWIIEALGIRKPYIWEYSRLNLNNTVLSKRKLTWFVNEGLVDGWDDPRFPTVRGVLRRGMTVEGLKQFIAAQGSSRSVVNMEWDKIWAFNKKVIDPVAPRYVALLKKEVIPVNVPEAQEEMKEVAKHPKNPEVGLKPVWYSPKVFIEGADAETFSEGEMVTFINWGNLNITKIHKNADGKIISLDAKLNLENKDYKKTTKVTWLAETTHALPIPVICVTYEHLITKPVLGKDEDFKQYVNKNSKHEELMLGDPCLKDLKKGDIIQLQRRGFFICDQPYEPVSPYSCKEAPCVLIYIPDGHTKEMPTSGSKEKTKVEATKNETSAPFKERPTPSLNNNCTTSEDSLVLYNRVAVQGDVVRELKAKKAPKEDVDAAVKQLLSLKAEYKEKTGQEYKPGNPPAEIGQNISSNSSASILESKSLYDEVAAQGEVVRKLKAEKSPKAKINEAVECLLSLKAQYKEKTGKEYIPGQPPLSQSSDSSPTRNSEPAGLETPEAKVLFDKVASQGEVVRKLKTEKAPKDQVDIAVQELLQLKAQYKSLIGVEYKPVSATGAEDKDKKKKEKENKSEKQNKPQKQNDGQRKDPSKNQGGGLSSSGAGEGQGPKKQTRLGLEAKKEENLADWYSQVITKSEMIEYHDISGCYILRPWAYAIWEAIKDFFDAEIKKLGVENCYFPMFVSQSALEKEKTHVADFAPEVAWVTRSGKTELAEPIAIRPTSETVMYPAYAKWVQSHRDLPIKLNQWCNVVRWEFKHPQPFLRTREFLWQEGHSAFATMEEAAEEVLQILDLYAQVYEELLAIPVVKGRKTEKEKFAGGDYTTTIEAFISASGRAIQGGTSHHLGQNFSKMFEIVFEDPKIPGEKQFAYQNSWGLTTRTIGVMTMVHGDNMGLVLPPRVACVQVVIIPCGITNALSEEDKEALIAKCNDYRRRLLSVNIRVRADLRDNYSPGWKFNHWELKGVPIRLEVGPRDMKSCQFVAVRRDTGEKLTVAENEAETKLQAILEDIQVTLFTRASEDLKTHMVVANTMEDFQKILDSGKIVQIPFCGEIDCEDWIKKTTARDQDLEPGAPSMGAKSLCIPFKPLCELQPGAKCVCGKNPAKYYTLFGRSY
Sequence of UniProt O14744 (whole entry, looked up): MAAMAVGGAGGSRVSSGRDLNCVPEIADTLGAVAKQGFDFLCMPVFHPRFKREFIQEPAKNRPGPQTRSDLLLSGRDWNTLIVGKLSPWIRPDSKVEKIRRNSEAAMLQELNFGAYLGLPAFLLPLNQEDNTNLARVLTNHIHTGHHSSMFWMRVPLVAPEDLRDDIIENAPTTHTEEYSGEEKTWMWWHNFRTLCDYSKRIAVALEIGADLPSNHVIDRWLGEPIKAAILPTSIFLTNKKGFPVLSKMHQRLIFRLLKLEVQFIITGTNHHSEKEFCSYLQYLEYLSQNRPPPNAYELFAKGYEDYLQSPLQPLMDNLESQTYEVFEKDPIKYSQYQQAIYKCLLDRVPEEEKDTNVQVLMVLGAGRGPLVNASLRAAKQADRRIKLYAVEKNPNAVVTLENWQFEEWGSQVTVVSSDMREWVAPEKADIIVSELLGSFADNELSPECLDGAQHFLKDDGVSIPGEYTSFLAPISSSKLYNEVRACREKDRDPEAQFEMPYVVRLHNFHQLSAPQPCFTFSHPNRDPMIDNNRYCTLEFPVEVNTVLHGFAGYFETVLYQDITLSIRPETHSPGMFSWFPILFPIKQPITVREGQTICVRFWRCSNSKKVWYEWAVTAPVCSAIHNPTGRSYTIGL
Sequence of UniProt P16442 (whole entry, unmodified, looked up): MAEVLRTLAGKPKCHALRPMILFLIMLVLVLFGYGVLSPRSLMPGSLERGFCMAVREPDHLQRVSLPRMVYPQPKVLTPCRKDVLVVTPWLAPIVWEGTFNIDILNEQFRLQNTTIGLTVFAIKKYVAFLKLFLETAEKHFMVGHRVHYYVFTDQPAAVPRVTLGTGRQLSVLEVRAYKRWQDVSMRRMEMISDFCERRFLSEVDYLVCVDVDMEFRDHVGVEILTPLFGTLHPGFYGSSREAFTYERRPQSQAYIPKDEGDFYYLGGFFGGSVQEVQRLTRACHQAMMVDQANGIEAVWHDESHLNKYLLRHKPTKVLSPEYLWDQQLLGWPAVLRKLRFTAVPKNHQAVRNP

| SMILES | target | assay | system | setting | how to read | quantity | result |
| --- | --- | --- | --- | --- | --- | --- | --- |
| C[N+](C)(C)CCCOc1ccc2cc(CN)ccc2c1 | Primary amine oxidase, liver isozyme (Bos taurus, UniProt Q29437) | substrate, fluorescence |  |  | baseline: benzylamine | relative kcat/Km | 1800 |
| NC(=O)C1CCNC(=O)C(Cc2ccc([N+](=O)[O-])cc2)NC(=O)C(Cc2ccco2)NC(=O)C(CC2CC2)NC(=O)C=CC(=O)N1 (centres unmarked) | MAP kinase-activated protein kinase 2 (MAPKAPK2, Homo sapiens, UniProt P49137) | DNA-templated library selection |  | one selection round |  | enrichment factor | 2 |
| O=C(Cc1cccc(C(F)(F)F)c1)Nc1cc(Oc2c(Cl)cc3nc(NC(=O)C4CC4)sc3c2Cl)ccc1F | RIPK1 | KINOMEscan binding Kd |  |  | baseline: RIPK1 over RIPK3, higher = more RIPK1-selective | selectivity ratio | > 78 |
| Cc1cc(N2CC[C@@](C#N)(C3CC3)C2=O)cc(NC(=O)Cc2ccccc2)n1 | Bifunctional glutamate/proline--tRNA ligase, prolyl-tRNA synthetase domain (EPRS1, Homo sapiens, UniProt P07814) | thermal shift |  |  |  | melting temperature | 64.1 °C and 70.1 °C and 70.6 °C |
| CCc1nc2cc3ccccc3cc2cc1C(=O)N[C@@H](CCCCN)C(=O)N[C@@H](C/C=C/C[C@H](NC(=O)[C@H](CCCCN)NC(=O)c1cc2cc3ccccc3cc2nc1CC)C(=O)N1CCC[C@H]1C(=O)NCCCN)C(=O)N1CCC[C@H]1C(=O)NCCCN | (CCUG)10 RNA | SPR |  |  |  | residence time | 256 s |
| C=CCCCCCCO[C@@H]1O[C@H](CO)[C@@H](O[C@@H]2O[C@H](CO)[C@H](O)[C@H](O)[C@H]2O[C@@H]2O[C@@H](C)[C@@H](O)[C@@H](O)[C@@H]2O)[C@H](O)[C@H]1O | Histo-blood group ABO system transferase (ABO, Homo sapiens, UniProt P16442, G235S/G268A/L266M/R176G) | methyl-TROSY NMR titration lineshape analysis |  | apo enzyme |  | kon | 1.1e+06 M⁻¹ s⁻¹ |
| C[C@H](CCC(=O)N[C@@H](CCC(=O)Nc1cncc(Br)c1)C(=O)O)[C@H]1CC[C@H]2[C@@H]3[C@H](O)C[C@@H]4C[C@H](O)CC[C@]4(C)[C@H]3CC[C@]12C | SLC10A2 | transport, substrate | ASBT-MDCK cells | unit not given | baseline: taurocholate Jmax | Jmax | 0.67 |
| CCC(=C(c1ccc(O)cc1)c1ccc(OCCN(C)CCOCCOCCOCCN(C)CCOc2ccc(C(=C(CC)c3ccccc3)c3ccc(O)cc3)cc2)cc1)c1ccccc1 (mixture of isomers) | ESR1 | competitor, radioligand competition binding |  | concentration not given, with: [3H]estradiol | baseline: estradiol | relative binding affinity | 8.16 ± 2% |
| CCCCOc1ccc(C(=O)OCC[N+]2(C)CC=CCC2)cc1 (centres unmarked) | Muscarinic acetylcholine receptor M1 (CHRM1, Homo sapiens, UniProt P11229) | recovery of [3H]NMS binding after washing | membranes | 100 µM |  | dissociation half-time | 0.4 ± 0.1 h |
| CCNC(=O)[C@H]1O[C@@H](n2cnc3c(NCCOCCOCCNC(=O)CCCCCNC(=O)COc4ccc(/C=C/C5=[N+]6C(=Cc7ccc(-c8cccs8)n7[B-]6(F)F)C=C5)cc4)ncnc32)[C@H](O)[C@@H]1O | ADORA1 | CRE reporter gene, agonist | CHO-A1 | PTX 100 ng/mL overnight, with: forskolin 3 µM | baseline: forskolin alone | maximal Gs response | 1.31 ± 0.06 fold increase |
| NC1CC=C(c2cc3c(Nc4cc5ncsc5cc4F)ncnc3s2)CC1 (centres unmarked) | RIPK1 | kinase activity |  | 1 µM | baseline: control | remaining activity | 110 ± 5% |
| N#Cc1cccc(/C=C/C(=O)c2ccc(O)cc2)c1 | Protein disulfide-isomerase A6 (PDIA6, Homo sapiens, UniProt Q15084) | enzyme activity, PDI reductase |  | 40 µM, protein 1 µM |  | activity class | inactive |
| Cc1ccc(C(=O)NCCN(Cc2ccncc2)C(=O)CCCOc2ccc(-c3nc4cc(-c5ccc(N6CCN(C)CC6)cc5)ccc4[nH]3)cc2)cc1F | T1, pre-miR-21 RNA (Homo sapiens) | RNase L cleavage, competitor, RNase L cleavage assay |  | with: RIBOTAC TGP-21-C1-3 |  | IC50 | 21000 nM |
| CC1(C)C=Cc2c(cc(O)c3c(=O)cc(-c4ccc(O)cc4O)oc23)O1 | Tyrosine-protein phosphatase non-receptor type 1 (PTPN1, Homo sapiens, UniProt P18031) | Lineweaver-Burk and Dixon plots |  |  |  | Ki (enzyme-substrate complex) | 2890 nM |
| CC(=O)N(CC(=O)N(C)[C@@H](C)C(=O)N(Cc1c[nH]c2cc(Cl)ccc12)[C@@H](C)C(=O)N(C)[C@@H](C)C(=O)N(CCC(C)(C)C)[C@@H](C)C(=O)N1CCNCC1)Cc1ccccc1 | E3 ubiquitin-protein ligase Mdm2, N-terminal domain 17-125 (MDM2, Homo sapiens, UniProt Q00987) | binding, SPR | PBS with Tween | 10 °C, immobilised peptoid |  | koff | 0.225 s⁻¹ |
| O=C1C=CC2(c3coc4cc(O)ccc4c3=O)c3cc(-c4coc5cc(O)ccc5c4=O)ccc3OC2C1 (centres unmarked) | PRXC1A (Armoracia rusticana, UniProt P00433) | oxidation, substrate |  |  |  | Km | 694 ± 36 µM |

| SMILES | target | assay | system | setting | how to read | quantity | result |
| --- | --- | --- | --- | --- | --- | --- | --- |
| CC(C=CC=CC=CC1=C(C)CCCC1(C)C)=CCO | Rhodopsin (RHO, Homo sapiens, UniProt P08100, T289P) | pharmacological chaperone, immunostaining, nonpermeabilized cells | 661W | 2.5 µM, 16 h | baseline: untreated cells | cell surface expression | ~2 fold |
| COc1ccc(-c2nc(CSc3nc(N)c(C#N)c(-c4ccc5c(c4)OCO5)c3C#N)cs2)cc1 | ADORA1 | cAMP, agonist |  |  |  | Emax | 104% |
| CCOc1cc(C(C)(C)C)ccc1C1=N[C@@H](c2ccc(Cl)cc2)[C@@H](c2ccc(Cl)cc2)N1C(=O)N1CCN(CC(=O)NCCOCCOCCOCCNC(=O)CN2CCN(C(=O)N3C(c4ccc(C(C)(C)C)cc4OCC)=N[C@@H](c4ccc(Cl)cc4)[C@H]3c3ccc(Cl)cc3)CC2=O)C(=O)C1 | E3 ubiquitin-protein ligase Mdm2 (MDM2, Homo sapiens, UniProt Q00987) | degrader, Western blot | A549 |  |  | time to degradation | ≤ 2 h |
| CCNC(=O)[C@H]1O[C@@H](n2cnc3c(Nc4ccc(I)cc4)ncnc32)[C@H](O)[C@@H]1O | Adenosine receptor A3 (ADORA3, Homo sapiens, UniProt P0DMS8) | kinetic radioligand binding |  | 10 °C, no GTP, with: [3H]PSB-11 |  | kon | 190000 ± 30000 M⁻¹ s⁻¹ |
| COc1ccc(NC(=O)CC[C@H](NC(=O)CC[C@@H](C)[C@H]2CC[C@H]3[C@@H]4[C@H](O)C[C@@H]5C[C@H](O)CC[C@]5(C)[C@H]4CC[C@]23C)C(=O)O)cn1 | SLC10A2 | transport | MDCK expressing ASBT |  | baseline: Ki over Kt | Ki over Kt | > 7 fold |
| CCCNCC(=O)O | ALB | binding, UV-vis absorption titration |  | concentration not given |  | hypochromicity | 38.3% |
| O=C(CSC(=S)N1CCCCCC1)Nc1cccc2c1C(=O)c1ccccc1C2=O | Inactive tyrosine-protein kinase transmembrane receptor ROR1 (ROR1, Homo sapiens, UniProt Q01973) | RTK phosphorylation antibody array | A549 | concentration not given | baseline: control | phosphorylation decrease | 2.8 fold |
| CC(Cc1ccc(Cl)cc1)=C(c1ccc(Cl)cc1)c1ccc(OCCN2CCOCC2)cc1 | ESR1 | reporter gene, agonist, yeast estrogen screen |  | 1 µM | baseline: DMSO | fold activation | 1.07 ± 0.16 fold |
| Cc1cc(C)c2sc(NC(=O)C3CCN(S(=O)(=O)c4ccc(F)cc4)CC3)nc2c1 | N-acyl-phosphatidylethanolamine-hydrolyzing phospholipase D (Homo sapiens, UniProt Q6IQ20) | activator | HepG2 | with: flame-NAPE substrate | baseline: vehicle | Emax | 1.6 fold |
| Nc1nc2cc(CC[C@H]3C[C@@H](n4ccc5c(N)ncnc54)[C@H](O)[C@@H]3O)ccc2cc1Br | Protein arginine N-methyltransferase 5, with WDR77 (PRMT5, Homo sapiens, UniProt O14744) | inhibitor, RapidFire MS |  | with: MEP50 |  | isomerisation rate constant k3 | 0.00047 s⁻¹ |
| CCCCCCCCCCCCSc1nc2c([nH]1)c(=S)n(C)c(=O)n2C | ESR1 | reporter gene, ERE luciferase | T47D-KBluc | 10 µM, 24 h, with: estradiol 5 nM | baseline: maximal luciferase activity | reporter activity | 49% |
| Cc1ccc(C(C)C)cc1.[C-]#[O+].[C-]#[O+].[C-]#[O+].[Cl-].[Cl-].[Cl-].[Re+].[Ru+2].c1cnc(-c2ncccn2)nc1 | ALB | tryptophan fluorescence quenching |  |  |  | binding constant | 28800 M⁻¹ |
| Nc1nc2cnc(C(=O)N3CCOC[C@@H]3c3ccc(C(F)(F)F)cc3)cc2c2c1COC2 | Protein arginine N-methyltransferase 5, SAM-bound (PRMT5, Homo sapiens, UniProt O14744) | SPR |  | concentration not given, with: SAM |  | receptor occupancy | ~25% |
| CCOC(=O)CCC(NC(=O)C(NC(=O)c1c(C)nn(-c2ccc(F)cc2)c1C)C(C)C)C(=O)OCC (centres unmarked) | Nucleotide-binding oligomerization domain-containing protein 1 (NOD1, Homo sapiens, UniProt Q9Y239) | NF-κB reporter gene, agonist | HEK-Blue cells expressing NOD1 | 10 µM, 16 h |  | activity | inactive |
| CCC(=C(c1ccc(O)cc1)c1ccc(OCCN(C)CCOCCOCCOCCOCCOCCOCCOCCOCCOCCOCCOCCN(C)CCOc2ccc(C(=C(CC)c3ccccc3)c3ccc(O)cc3)cc2)cc1)c1ccccc1 (mixture of isomers) | Estrogen receptor beta (ESR2, Homo sapiens, UniProt Q92731) | radioligand competition binding |  | concentration not given, Z-Z/Z isomer form, with: [3H]estradiol tracer | baseline: estradiol | relative binding affinity | 7.17 ± 1.4% |
| C[C@]12CC[C@@H]3c4ccc(O)cc4C(=NOCC(=O)O)C[C@H]3[C@@H]1CC[C@@H]2O | T2, DNA aptamer | bead-ELAA |  | NaCl 100 mM |  | Kd | 15.2 nM |

A few entries again:
| SMILES | target | assay | system | setting | how to read | quantity | result |
| --- | --- | --- | --- | --- | --- | --- | --- |
| CCCNCC(=O)O | ALB | binding, UV-vis absorption titration |  | concentration not given |  | hypochromicity | 38.3% |
| O=C(CSC(=S)N1CCCCCC1)Nc1cccc2c1C(=O)c1ccccc1C2=O | Inactive tyrosine-protein kinase transmembrane receptor ROR1 (ROR1, Homo sapiens, UniProt Q01973) | RTK phosphorylation antibody array | A549 | concentration not given | baseline: control | phosphorylation decrease | 2.8 fold |
